# Measured values gathered from unrelated publications.
# Protocols differ between the studies behind these lines.
# mrcB: Penicillin-binding protein 1B (mrcB, Escherichia coli K-12, UniProt P02919)
# UniProt P02919, sequence (whole entry, looked up): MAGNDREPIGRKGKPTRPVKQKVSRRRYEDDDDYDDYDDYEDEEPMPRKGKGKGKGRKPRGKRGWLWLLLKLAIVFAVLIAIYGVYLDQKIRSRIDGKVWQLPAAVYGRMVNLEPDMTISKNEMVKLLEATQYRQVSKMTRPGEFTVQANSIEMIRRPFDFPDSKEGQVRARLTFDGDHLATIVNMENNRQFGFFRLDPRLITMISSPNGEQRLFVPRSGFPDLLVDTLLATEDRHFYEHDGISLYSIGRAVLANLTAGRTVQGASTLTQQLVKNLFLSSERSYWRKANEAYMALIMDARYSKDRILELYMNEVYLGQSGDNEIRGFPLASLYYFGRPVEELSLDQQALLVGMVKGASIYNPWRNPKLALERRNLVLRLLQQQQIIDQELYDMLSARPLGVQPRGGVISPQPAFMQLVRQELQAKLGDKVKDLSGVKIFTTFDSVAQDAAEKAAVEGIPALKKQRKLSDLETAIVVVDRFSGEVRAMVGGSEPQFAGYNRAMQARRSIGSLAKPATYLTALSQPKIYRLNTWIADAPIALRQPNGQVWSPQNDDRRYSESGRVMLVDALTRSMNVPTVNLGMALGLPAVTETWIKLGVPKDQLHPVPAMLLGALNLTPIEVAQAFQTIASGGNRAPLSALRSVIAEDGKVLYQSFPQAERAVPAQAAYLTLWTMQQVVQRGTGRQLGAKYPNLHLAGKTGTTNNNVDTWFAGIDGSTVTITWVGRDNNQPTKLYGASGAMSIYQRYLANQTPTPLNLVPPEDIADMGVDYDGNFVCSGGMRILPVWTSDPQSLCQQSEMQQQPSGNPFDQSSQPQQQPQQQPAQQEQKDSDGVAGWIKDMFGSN
# ACE: Angiotensin-converting enzyme (ACE, Homo sapiens, UniProt P12821)
# UniProt P12821, sequence (whole entry, looked up): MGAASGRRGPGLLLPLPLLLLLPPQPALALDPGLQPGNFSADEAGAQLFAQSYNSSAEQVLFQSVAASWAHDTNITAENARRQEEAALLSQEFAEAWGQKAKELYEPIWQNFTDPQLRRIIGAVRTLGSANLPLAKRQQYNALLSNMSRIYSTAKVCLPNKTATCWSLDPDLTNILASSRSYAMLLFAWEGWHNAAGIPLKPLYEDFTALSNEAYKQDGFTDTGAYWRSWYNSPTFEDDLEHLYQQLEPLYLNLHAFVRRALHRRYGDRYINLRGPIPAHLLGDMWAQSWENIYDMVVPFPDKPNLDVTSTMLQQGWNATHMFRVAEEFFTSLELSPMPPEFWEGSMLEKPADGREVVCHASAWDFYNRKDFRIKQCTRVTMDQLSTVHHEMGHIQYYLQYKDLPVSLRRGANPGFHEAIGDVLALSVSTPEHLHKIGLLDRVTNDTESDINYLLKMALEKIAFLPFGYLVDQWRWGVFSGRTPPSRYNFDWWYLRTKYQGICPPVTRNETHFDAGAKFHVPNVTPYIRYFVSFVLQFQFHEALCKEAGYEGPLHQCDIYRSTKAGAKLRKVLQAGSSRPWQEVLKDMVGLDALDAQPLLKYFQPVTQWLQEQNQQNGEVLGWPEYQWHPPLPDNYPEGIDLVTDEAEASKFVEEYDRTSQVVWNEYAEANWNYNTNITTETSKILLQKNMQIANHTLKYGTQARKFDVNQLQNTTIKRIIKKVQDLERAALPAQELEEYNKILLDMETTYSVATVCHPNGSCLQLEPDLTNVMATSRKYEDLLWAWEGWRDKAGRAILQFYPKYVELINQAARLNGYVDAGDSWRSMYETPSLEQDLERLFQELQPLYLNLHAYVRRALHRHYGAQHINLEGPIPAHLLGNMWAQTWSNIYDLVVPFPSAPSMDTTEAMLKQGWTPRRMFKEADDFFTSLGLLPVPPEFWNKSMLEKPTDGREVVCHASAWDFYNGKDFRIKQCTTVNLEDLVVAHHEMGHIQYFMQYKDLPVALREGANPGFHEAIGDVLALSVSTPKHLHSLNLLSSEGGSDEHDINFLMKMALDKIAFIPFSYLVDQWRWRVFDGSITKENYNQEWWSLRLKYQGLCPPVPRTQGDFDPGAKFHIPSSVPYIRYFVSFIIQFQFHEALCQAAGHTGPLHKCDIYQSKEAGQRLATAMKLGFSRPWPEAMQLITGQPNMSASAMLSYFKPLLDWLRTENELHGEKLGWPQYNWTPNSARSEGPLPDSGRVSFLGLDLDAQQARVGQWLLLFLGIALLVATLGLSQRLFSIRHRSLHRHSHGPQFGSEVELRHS
# Adhesin FmlH lectin domain: Adhesin FmlH, lectin domain (Escherichia coli, UniProt Q1RBS0)
# CDK6 with cyclin D3: Cyclin-dependent kinase 6, with cyclin D3 (CDK6, Homo sapiens, UniProt Q00534)
# UniProt Q00534, sequence (whole entry, looked up): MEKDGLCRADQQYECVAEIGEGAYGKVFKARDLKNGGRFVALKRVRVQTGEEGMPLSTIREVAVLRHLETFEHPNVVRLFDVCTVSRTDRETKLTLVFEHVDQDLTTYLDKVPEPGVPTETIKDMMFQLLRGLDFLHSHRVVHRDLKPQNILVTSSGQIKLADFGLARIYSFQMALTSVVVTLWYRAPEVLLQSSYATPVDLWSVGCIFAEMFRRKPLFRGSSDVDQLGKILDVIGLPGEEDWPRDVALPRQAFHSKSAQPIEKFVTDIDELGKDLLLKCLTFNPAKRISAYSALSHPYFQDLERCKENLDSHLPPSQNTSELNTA
# UniProt P48549, sequence (whole entry, looked up): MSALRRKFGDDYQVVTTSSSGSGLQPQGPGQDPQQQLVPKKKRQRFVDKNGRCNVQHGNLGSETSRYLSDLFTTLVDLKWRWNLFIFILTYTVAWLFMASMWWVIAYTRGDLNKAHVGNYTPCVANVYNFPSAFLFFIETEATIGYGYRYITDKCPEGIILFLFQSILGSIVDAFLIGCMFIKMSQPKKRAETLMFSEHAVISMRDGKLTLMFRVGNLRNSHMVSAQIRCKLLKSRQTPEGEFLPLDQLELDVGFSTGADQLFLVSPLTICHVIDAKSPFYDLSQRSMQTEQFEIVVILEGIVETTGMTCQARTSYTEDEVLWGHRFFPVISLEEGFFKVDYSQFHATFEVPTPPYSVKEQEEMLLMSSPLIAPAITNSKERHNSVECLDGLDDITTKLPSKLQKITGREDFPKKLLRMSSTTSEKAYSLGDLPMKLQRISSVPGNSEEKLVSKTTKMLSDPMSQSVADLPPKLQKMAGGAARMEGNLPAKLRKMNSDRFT
# UniProt P06493, sequence (whole entry, looked up): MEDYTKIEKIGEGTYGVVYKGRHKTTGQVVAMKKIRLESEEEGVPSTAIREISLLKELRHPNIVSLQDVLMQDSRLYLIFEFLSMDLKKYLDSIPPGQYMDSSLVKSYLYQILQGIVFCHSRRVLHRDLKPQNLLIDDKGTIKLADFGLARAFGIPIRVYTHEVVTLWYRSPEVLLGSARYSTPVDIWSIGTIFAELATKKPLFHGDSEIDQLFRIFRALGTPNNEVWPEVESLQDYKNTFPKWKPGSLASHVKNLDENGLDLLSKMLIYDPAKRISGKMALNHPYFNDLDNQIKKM
# UniProt P45983, sequence (whole entry, looked up): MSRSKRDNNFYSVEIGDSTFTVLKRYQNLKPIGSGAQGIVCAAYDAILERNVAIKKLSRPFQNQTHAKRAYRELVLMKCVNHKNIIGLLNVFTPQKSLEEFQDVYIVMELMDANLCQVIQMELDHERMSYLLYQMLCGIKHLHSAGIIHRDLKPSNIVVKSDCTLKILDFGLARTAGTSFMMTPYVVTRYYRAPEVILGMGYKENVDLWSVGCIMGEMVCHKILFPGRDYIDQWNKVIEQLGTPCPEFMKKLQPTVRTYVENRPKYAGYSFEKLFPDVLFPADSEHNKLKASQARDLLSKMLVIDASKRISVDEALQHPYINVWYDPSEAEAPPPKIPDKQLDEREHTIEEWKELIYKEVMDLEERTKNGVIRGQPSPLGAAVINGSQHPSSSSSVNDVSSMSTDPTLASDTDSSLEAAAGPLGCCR
# UniProt Q16644, sequence (whole entry, looked up): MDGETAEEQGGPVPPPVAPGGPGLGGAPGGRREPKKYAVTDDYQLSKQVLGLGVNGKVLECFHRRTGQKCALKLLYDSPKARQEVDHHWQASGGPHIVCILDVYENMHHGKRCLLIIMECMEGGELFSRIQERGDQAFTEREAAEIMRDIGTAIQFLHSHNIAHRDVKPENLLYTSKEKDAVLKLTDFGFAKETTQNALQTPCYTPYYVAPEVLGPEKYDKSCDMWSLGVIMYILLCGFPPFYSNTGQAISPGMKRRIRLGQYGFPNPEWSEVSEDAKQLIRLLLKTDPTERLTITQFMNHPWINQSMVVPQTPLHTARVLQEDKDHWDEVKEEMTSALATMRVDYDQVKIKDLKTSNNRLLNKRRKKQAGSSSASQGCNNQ
# UniProt Q9NR19, sequence (whole entry, looked up): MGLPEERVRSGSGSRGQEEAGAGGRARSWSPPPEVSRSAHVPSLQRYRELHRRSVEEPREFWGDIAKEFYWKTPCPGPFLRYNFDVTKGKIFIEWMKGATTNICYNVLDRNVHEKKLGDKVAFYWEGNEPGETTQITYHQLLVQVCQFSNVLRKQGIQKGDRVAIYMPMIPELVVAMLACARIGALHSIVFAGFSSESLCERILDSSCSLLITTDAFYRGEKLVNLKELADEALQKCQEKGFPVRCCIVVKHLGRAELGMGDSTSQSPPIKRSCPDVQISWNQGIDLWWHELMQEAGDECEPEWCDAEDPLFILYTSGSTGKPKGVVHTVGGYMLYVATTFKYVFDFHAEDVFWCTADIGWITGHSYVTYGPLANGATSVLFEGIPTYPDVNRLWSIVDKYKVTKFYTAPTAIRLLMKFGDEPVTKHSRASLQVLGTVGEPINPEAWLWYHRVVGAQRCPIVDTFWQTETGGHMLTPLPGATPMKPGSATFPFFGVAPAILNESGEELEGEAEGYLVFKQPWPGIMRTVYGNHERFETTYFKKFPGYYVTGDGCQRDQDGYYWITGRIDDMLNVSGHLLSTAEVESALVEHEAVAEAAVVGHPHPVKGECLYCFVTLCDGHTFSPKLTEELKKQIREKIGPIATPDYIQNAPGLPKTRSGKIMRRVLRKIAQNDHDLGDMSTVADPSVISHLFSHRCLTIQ
SMILES,target,test,system,conditions,inhibition
CC(=O)c1cnc(N)nc1N1CC[C@H]1c1nn2ccc(Cl)c2c(=O)n1-c1ccccc1,"Kir3.1/Kir3.4 (Homo sapiens, UniProt P48544+P48549)","ion current, inhibitor",,3 µM,< 10%
CCCCCCCCCCN1C(=O)/C(=N\NC(N)=S)c2cc(C)ccc21,mrcB,"enzyme activity, inhibitor, HPLC",,50 µM,40%
CC(C)C[C@H](NC(=O)[C@@H](NC(=O)[C@H](CCC(N)=O)NC(=O)CNC(=O)[C@H](CO)NC(=O)[C@H](Cc1ccccc1)NC(=O)[C@@H](N)CC(C)C)C(C)C)C(=O)O,ACE,"enzyme activity, inhibitor, HPLC",,1330 µg/mL,71.4%
C#CCSc1nc(Sc2nnnn2-c2ccccc2)c2nnn(Cc3ccccc3Cl)c2n1,"Cyclin-dependent kinase 1, with cyclin B (CDK1, Homo sapiens, UniProt P06493)","enzyme activity, inhibitor",,10 µM,< 15%
OC[C@H]1O[C@@H](Oc2cccc3cccnc23)[C@H](O)[C@@H](O)[C@H]1O,Adhesin FmlH lectin domain,"binding to desialylated mucin, ELISA competition",UPEC UTI89,100 µM,95%
O=C(CCCCCCN1CCN(c2ccc(Nc3ncc(F)c(-c4cn(C5CCCC5)nn4)n3)cc2)CC1)NO,CDK6 with cyclin D3,"enzyme activity, inhibitor, TR-FRET",,5 µM,70.1%
COc1cc(OC)cc(O[C@@H]2O[C@H](CO)[C@H](O)[C@H](O)[C@H]2O)c1,Adhesin FmlH lectin domain,"binding to desialylated mucin, ELISA competition",UPEC UTI89,100 µM,76%
CC(C)Cn1cc(-c2ccnc(Nc3ccc(OCCCCCCC(=O)NO)cc3)n2)nn1,CDK6 with cyclin D3,"enzyme activity, inhibitor, TR-FRET",,5 µM,9.78%
CC(C)C(O)C(NC(=O)[C@H](Cc1ccc(O)cc1)NC(=O)C(Cc1ccc(O)cc1)[N+](C)(C)C)C(=O)N[C@@H](C)C(=O)O (stereo partly drawn),ACE,enzyme activity,,concentration not given,inactive
CCCCCCCCN1C(=O)/C(=N\NC(=N)N)c2cc(C)ccc21,mrcB,"enzyme activity, inhibitor, HPLC",,50 µM,71%
CC(=O)N[C@H]1[C@@H](Oc2ccc([N+](=O)[O-])cc2)O[C@H](CO)[C@H](O)[C@@H]1O,Adhesin FmlH lectin domain,"binding to desialylated mucin, ELISA competition",UPEC UTI89,100 µM,82%
CC(=O)NCC(=O)N[C@@H](CC(=O)O)C(=O)N[C@@H](Cc1ccc(O)cc1)C(=O)N[C@@H](CO)C(=O)N[C@@H](Cc1c[nH]cn1)C(=O)N[C@H]1CSSC[C@@H](C(=O)N[C@H](C(=O)N[C@@H](Cc2ccc(O)cc2)C(=O)N2CCC[C@H]2C(=O)N[C@@H](CC(=O)O)C(=O)N2CCC[C@H]2C(=O)N[C@@H](CCC(=O)O)C(=O)NCC(=O)NCC(=O)NCC(N)=O)[C@@H](C)O)NC(=O)[C@H](CCCCN)NC(=O)[C@H](Cc2c[nH]c3ccccc23)NC(=O)[C@H](Cc2c[nH]c3ccccc23)NC(=O)[C@@H]2CCCN2C(=O)[C@H](Cc2ccc(O)cc2)NC(=O)[C@H](Cc2ccc(O)cc2)NC(=O)[C@H](CCCNC(=N)N)NC(=O)[C@H](CC(C)C)NC(=O)[C@@H]2CCCN2C(=O)[C@H](CO)NC1=O,ACE,"enzyme activity, inhibitor, fluorescence",,30 µM,14%
Cc1ccc(C(=O)Nc2ccc(CN)cc2)c(O)c1,"Suppressor of tumorigenicity 14 protein (ST14, Homo sapiens, UniProt Q9Y5Y6)","enzyme activity, inhibitor",,10 µM,< 20%
CN(C)C/C=C/C(=O)Nc1ccc(C(=O)N[C@H]2CCC[C@@H](Nc3ncc(Cl)c(-c4c[nH]c5ccccc45)n3)C2)nc1,"Cyclin-dependent kinase 13 (CDK13, Homo sapiens, UniProt Q14004)",KiNativ profiling,A549 cell lysate,1 µM,> 50%
COc1cc(C(=O)NC2CCC(N3CCN(CC4CCC5(CCCC5)C4)CC3)CC2)c(F)cc1Nc1ncc2c(n1)N(C1CCCC1(F)F)CC(F)(F)C(=O)N2C (stereo not drawn),"Insulin-like growth factor 1 receptor (IGF1R, Homo sapiens, UniProt P08069)","cell-free assay, TR-FRET",,10 µM,0.49%
CC[C@H](C)[C@H](NC(=O)[C@@H](N)C(C)C)C(=O)N[C@@H](Cc1ccc(O)cc1)C(=O)NCC(=O)N1CCC[C@H]1C(=O)N[C@@H](CO)C(=O)N[C@H](C(=O)N[C@@H](Cc1ccccc1)C(=O)O)C(C)C,ACE,"enzyme activity, inhibitor, HPLC",,270 µg/mL,69.5%
COC(=O)C1=CNC=C(C(=O)OC)C1c1ccc(F)c(C(F)(F)F)c1,L-type calcium channel dihydropyridine site (rat),binding,rat cerebral cortex,"3 µM, added: [3H]nitrendipine",~45%
COc1cc(OC2CCN(C)CC2)ccc1Nc1ncc2c(n1)n(C1CCCC1)c(=O)n2C,"Mitogen-activated protein kinase 8 (MAPK8, Homo sapiens, UniProt P45983)","enzyme activity, inhibitor",,1 µM,> 40%
CC(C)Cn1cc(-c2ccnc(Nc3ccc(C(=O)Nc4ccccc4N)cc3)n2)nn1,CDK6 with cyclin D3,"enzyme activity, inhibitor, TR-FRET",,50 nM,6.49%
COCC12C(=O)NC3C4(C(OC)CC1O)C1CC5(O)C(OC)C(O)C(OC(C)=O)(C1C5OC(=O)c1ccccc1)C3(O)C(OC)C24 (stereo not drawn),"MAP kinase-activated protein kinase 3 (MAPKAPK3, Homo sapiens, UniProt Q16644)",enzyme activity,,25 µM,no inhibition
CC(C)C[C@H](NC(=O)[C@@H]1CCCN1C(=O)[C@@H]1CCCN1C(=O)[C@H](CC(N)=O)NC(=O)[C@@H](N)Cc1ccc(Cl)c(Cl)c1)C(=O)N[C@@H](Cc1c[nH]cn1)C(=O)N[C@@H](CO)C(=O)N[C@H](C(=O)N[C@@H](C)C(=O)O)[C@@H](C)OP(=O)(O)O,"Serine/threonine-protein kinase PLK4 (PLK4, Homo sapiens, UniProt O00444)","enzyme activity, inhibitor",,10 µM,5.04%
Cc1ccc(O[C@@H]2O[C@H](CO)[C@H](O)[C@H](O)[C@H]2O)cc1,Adhesin FmlH lectin domain,"binding to desialylated mucin, ELISA competition",UPEC UTI89,100 µM,86%
CCCCCCCCCCCN1C(=O)/C(=N\NC(=N)N)c2cc(C)ccc21,mrcB,"enzyme activity, inhibitor, HPLC",,50 µM,100%
C[C@@H](N)C1CCN(S(=O)(=O)c2cccc3c(=O)[nH]ccc23)CC1,"Protein kinase C epsilon type (PRKCE, Homo sapiens, UniProt Q02156)","cell-free assay, competition with immobilised ligand",,10 µM,> 95%
CC(C)Cn1cc(-c2ccnc(Nc3ccc(N4CCN(CCCCCCC(=O)NO)CC4)cc3)n2)nn1,CDK6 with cyclin D3,"enzyme activity, inhibitor, TR-FRET",,50 nM,6.66%
Nc1ccc(O[C@@H]2O[C@H](CO)[C@H](O)[C@H](O)[C@H]2O)cc1,Adhesin FmlH lectin domain,"binding to desialylated mucin, ELISA competition",UPEC UTI89,100 µM,65%
CN(Cc1cc(C2CC2)on1)C(=O)c1cccc(-c2ccc3c(c2)CCO3)c1,"Acetyl-coenzyme A synthetase, cytoplasmic (ACSS2, Homo sapiens, UniProt Q9NR19)",enzyme activity,,concentration not given,inactive

# A few entries again:
SMILES,target,test,system,conditions,inhibition
Cc1ccc(O[C@@H]2O[C@H](CO)[C@H](O)[C@H](O)[C@H]2O)cc1,Adhesin FmlH lectin domain,"binding to desialylated mucin, ELISA competition",UPEC UTI89,100 µM,86%
CC(=O)NCC(=O)N[C@@H](CC(=O)O)C(=O)N[C@@H](Cc1ccc(O)cc1)C(=O)N[C@@H](CO)C(=O)N[C@@H](Cc1c[nH]cn1)C(=O)N[C@H]1CSSC[C@@H](C(=O)N[C@H](C(=O)N[C@@H](Cc2ccc(O)cc2)C(=O)N2CCC[C@H]2C(=O)N[C@@H](CC(=O)O)C(=O)N2CCC[C@H]2C(=O)N[C@@H](CCC(=O)O)C(=O)NCC(=O)NCC(=O)NCC(N)=O)[C@@H](C)O)NC(=O)[C@H](CCCCN)NC(=O)[C@H](Cc2c[nH]c3ccccc23)NC(=O)[C@H](Cc2c[nH]c3ccccc23)NC(=O)[C@@H]2CCCN2C(=O)[C@H](Cc2ccc(O)cc2)NC(=O)[C@H](Cc2ccc(O)cc2)NC(=O)[C@H](CCCNC(=N)N)NC(=O)[C@H](CC(C)C)NC(=O)[C@@H]2CCCN2C(=O)[C@H](CO)NC1=O,ACE,"enzyme activity, inhibitor, fluorescence",,30 µM,14%
